Assay results of several laboratories.
Lines come from different studies, so protocols differ.

SMILES = CCN(CC)C(=O)c1ccc(-c2c3ccc(=[N+](C)C)cc-3sc3cc4c(cc23)C(C)(C)CCN4C)s1; assay = 1O2 luminescence; system = air-saturated methanol; singlet oxygen quantum yield = < 0.05
SMILES = CCCCCCCCC1(CCCCCCCC)c2cc(-c3cc4[n+]5c(c3)-c3cccc[n+]3[Ir-3]536([n+]5ccccc5-c5cc(-c7ccccc7)cc([n+]53)-c3cccc[n+]36)[n+]3ccccc3-4)ccc2-c2ccc(-c3cc4[n+]5c(c3)-c3cccc[n+]3[Ir-3]536([n+]5ccccc5-c5cc(-c7ccccc7)cc([n+]53)-c3cccc[n+]36)[n+]3ccccc3-4)cc21.F[P-](F)(F)(F)(F)F.F[P-](F)(F)(F)(F)F.F[P-](F)(F)(F)(F)F.F[P-](F)(F)(F)(F)F.F[P-](F)(F)(F)(F)F.F[P-](F)(F)(F)(F)F; system = acetonitrile; setting = 5 µM; scale = relative to: [Ru(bpy)3](PF6)2; singlet oxygen quantum yield = 0.28
SMILES = COc1cc(OC)cc(C2=C3C(C)=C(I)C(C)=[N+]3[B-](F)(F)n3c(/C=C/c4cccs4)c(I)c(C)c32)c1; assay = DPBF absorbance decrease; system = DMSO; scale = relative to: methylene blue; singlet oxygen quantum yield = 0.63
SMILES = CC(=O)N[C@@H](CC[S+](C)[Ru-4]123([S+](C)CC[C@H](NC(C)=O)C(=O)O)[n+]4ccc5ccccc5c4Nc4cccc([n+]41)-c1cccc([n+]12)Nc1c2ccccc2cc[n+]13)C(=O)[O-].F[P-](F)(F)(F)(F)F (stereo partly shown); system = CD3OD; setting = 298 K, excitation 450 nm; singlet oxygen quantum yield = 2.3%
SMILES = COc1cc(OC)cc(C2=C3C(C)=C(I)C(/C=C/c4c[nH]c5ccccc45)=[N+]3[B-](F)(F)n3c(/C=C/c4c[nH]c5ccccc45)c(I)c(C)c32)c1; assay = DPBF absorbance decrease; system = DMSO; scale = relative to: methylene blue; singlet oxygen quantum yield = 0.64
SMILES = CC(C)(C)c1cc(-c2ccc3cc4ccccc4nc3n2)nc(-c2ccc3cc4ccccc4nc3n2)c1.Cc1ccncc1.[Cl-].[Cl-].[Ru+2].c1ccc2cc3nc4c5cccnc5c5ncccc5c4nc3cc2c1; assay = 1O2 phosphorescence; system = acetonitrile; setting = excitation maximum 455 nm; scale = relative to: Ru(bpy)3(PF6)2; singlet oxygen quantum yield = 0.14
SMILES = CCCCCCCCC1(CCCCCCCC)c2cc(C#Cc3cc4[n+]5c(c3)-c3cccc[n+]3[Ir-3]536([n+]5ccccc5-4)[n+]4ccccc4-c4cc(-c5ccccc5)cc([n+]43)-c3cccc[n+]36)ccc2-c2ccc(C#Cc3cc4[n+]5c(c3)-c3cccc[n+]3[Ir-3]536([n+]5ccccc5-4)[n+]4ccccc4-c4cc(-c5ccccc5)cc([n+]43)-c3cccc[n+]36)cc21.F[P-](F)(F)(F)(F)F.F[P-](F)(F)(F)(F)F.F[P-](F)(F)(F)(F)F.F[P-](F)(F)(F)(F)F.F[P-](F)(F)(F)(F)F.F[P-](F)(F)(F)(F)F; system = acetonitrile; setting = 5 µM; scale = relative to: [Ru(bpy)3](PF6)2; singlet oxygen quantum yield = 0.26
SMILES = Cc1ccncc1.[Cl-].[Cl-].[Ru+2].c1cc(-c2ccc3cccnc3n2)nc(-c2ccc3cccnc3n2)c1.c1ccc2cc3nc4c5cccnc5c5ncccc5c4nc3cc2c1; assay = 1O2 phosphorescence; system = acetonitrile; setting = excitation 630 nm; scale = relative to: Ru(bpy)3(PF6)2; singlet oxygen quantum yield = 0.77
SMILES = CN1CCC(C)(C)c2cc3c(-c4ccc(C(=S)N5CCCCC5)s4)c4ccc(=[N+](C)C)cc-4sc3cc21; assay = 1O2 luminescence; system = air-saturated methanol; singlet oxygen quantum yield = < 0.05
SMILES = CCOC(=O)c1[nH]c(C)c(/C=C/c2c(I)c(C)c3n2[B-](F)(F)[N+]2=C(C)C(I)=C(C)C2=C3c2cc(OC)cc(OC)c2)c1C; assay = DPBF absorbance decrease; system = DMSO; scale = relative to: methylene blue; singlet oxygen quantum yield = 0.65
SMILES = CC(C)(C)c1cc(-c2ccc3cccnc3n2)nc(-c2ccc3cccnc3n2)c1.[Cl-].[Cl-].[Ru+2].c1ccc2cc3nc4c5cccnc5c5ncccc5c4nc3cc2c1; assay = 1O2 phosphorescence; system = acetonitrile; setting = excitation 630 nm; scale = relative to: Ru(bpy)3(PF6)2; singlet oxygen quantum yield = 0.04
SMILES = Cn1cncn1.[Ru+2].c1cc(-c2ccc3ccccc3n2)nc(-c2ccc3ccccc3n2)c1.c1ccc2cc3nc4c5cccnc5c5ncccc5c4nc3cc2c1; system = methanol; setting = irradiation 460 nm; singlet oxygen quantum yield = 0.78
SMILES = COc1cc(OC)cc(C2=C3C(C)=C(I)C(/C=C/c4cccs4)=[N+]3[B-](F)(F)n3c(/C=C/c4cccs4)c(I)c(C)c32)c1; assay = DPBF absorbance decrease; system = DMSO; scale = relative to: methylene blue; singlet oxygen quantum yield = 0.37

Repeated from above:
SMILES = CC(=O)N[C@@H](CC[S+](C)[Ru-4]123([S+](C)CC[C@H](NC(C)=O)C(=O)O)[n+]4ccc5ccccc5c4Nc4cccc([n+]41)-c1cccc([n+]12)Nc1c2ccccc2cc[n+]13)C(=O)[O-].F[P-](F)(F)(F)(F)F (stereo partly shown); system = CD3OD; setting = 298 K, excitation 450 nm; singlet oxygen quantum yield = 2.3%
